Results gathered from unrelated publications.
Lines come from different studies, so protocols differ. Several values in a cell are separate wells, animals, samples, runs or records. Numbers after ± are the reported error. Values after ≈ are worked out from the molar mass of the structure shown.
Sequence of UniProt Q13555 (whole entry, looked up): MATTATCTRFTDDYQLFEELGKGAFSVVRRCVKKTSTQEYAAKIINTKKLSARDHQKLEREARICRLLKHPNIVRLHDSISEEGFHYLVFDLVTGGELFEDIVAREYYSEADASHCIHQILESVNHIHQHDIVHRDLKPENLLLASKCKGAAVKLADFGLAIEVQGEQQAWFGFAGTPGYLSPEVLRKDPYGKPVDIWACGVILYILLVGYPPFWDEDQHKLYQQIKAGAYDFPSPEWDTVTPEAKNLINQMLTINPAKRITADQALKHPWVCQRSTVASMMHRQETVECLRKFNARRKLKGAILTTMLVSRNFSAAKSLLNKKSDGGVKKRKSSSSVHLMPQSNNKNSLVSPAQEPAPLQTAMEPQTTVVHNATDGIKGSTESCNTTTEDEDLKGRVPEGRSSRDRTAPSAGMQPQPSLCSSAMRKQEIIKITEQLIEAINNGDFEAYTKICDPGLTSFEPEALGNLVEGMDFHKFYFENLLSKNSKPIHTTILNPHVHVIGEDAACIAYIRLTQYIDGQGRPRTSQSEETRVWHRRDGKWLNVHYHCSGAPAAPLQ
Sequence of UniProt P21452 (whole entry, looked up): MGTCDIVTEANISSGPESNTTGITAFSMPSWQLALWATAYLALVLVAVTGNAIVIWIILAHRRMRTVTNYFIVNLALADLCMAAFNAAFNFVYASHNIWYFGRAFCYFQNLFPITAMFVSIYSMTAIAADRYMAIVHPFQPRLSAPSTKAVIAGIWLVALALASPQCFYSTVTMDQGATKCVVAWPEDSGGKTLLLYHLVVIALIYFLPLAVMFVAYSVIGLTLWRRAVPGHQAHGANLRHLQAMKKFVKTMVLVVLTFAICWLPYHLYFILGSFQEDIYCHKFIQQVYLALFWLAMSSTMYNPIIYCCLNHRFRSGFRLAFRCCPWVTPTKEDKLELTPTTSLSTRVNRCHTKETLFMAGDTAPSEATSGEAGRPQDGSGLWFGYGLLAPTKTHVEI

`Fc1cc(-c2ccc3c(c2)OCO3)ccc1Cn1ccnc1` has an MIC50 of 5.8 µM (≈ 1.72 µg/mL) (Mycobacterium tuberculosis variant bovis BCG; microbial growth; BCG).
With `COC1=CC2=NCCc3c[nH]c(c32)C1=O` the IC50 was 848 nM (Babesia duncani; parasite growth, SYBR Green; 60 h, blood stage).
The MIC50 of `C(=C\c1ccc(-c2ccccc2)cc1)/Cn1ccnc1` is reported as 1.8 µM (≈ 0.469 µg/mL) (Mycobacterium tuberculosis variant bovis BCG; microbial growth; BCG).
`CC(C)CC(C(=O)N1CC2(CC1C#N)C(=O)Nc1ccccc12)N(C)C(=O)c1cc2c(F)cc(F)c(F)c2[nH]1` (stereo not drawn) gave an inhibition of 20.7% (Human coronavirus 229E; cytopathic effect; MRC5; 1.393 nM).
`Fc1ccc(-c2ccc(Cn3ccnc3)c(F)c2)cc1F` gave an MIC50 of 2.7 µM (≈ 0.778 µg/mL) (Mycobacterium tuberculosis variant bovis BCG; microbial growth; BCG).
`Cc1nc2cc(C(F)(F)F)ccn2c1C(=O)NCc1ccc2oc(-c3ccc(OC(F)(F)F)cc3)nc2c1` has an MIC of greater than 50 µM (Mycolicibacterium smegmatis; 72 h).
For `N=C(N)NCCC[C@@H]1NC(=O)[C@H](CCCCNC(=O)CCC(NC(=S)Nc2ccc(CC3CN(CC(=O)O)CCN(CC(=O)O)CCN(CC(=O)O)CCN3CC(=O)O)cc2)C(=O)NCCCC[C@@H]2NC(=O)[C@@H](Cc3ccc(O)cc3)NC(=O)[C@H](CC(=O)O)NC(=O)CNC(=O)[C@H](CCCNC(=N)N)NC2=O)NC(=O)[C@@H](Cc2ccc(O)cc2)NC(=O)[C@H](CC(=O)O)NC(=O)CNC1=O` (stereo partly drawn) [scandium-44 labelled], the tissue uptake was 0.63 ± 0.17 %ID/g (PET imaging; female athymic nude mouse, kidney; intravenous, 2 h, U-87 MG xenograft, with: cRGD 50 mg/kg blocking).
`C[N+]1=C2C=C(NCCc3c[nH]c4ccccc34)C(=O)c3[nH]cc(c32)CC1` gave an IC50 of 30.1 nM (Babesia duncani; parasite growth, SYBR Green; 60 h, blood stage).
`Cc1nc2ccc(OC(F)(F)F)cn2c1C(=O)NCc1ccc2oc(-c3ccc(OC(F)(F)F)cc3)nc2c1` gave an MIC90 of greater than 100 µM (Mycolicibacterium smegmatis).
`Cc1cc(C(=O)Nc2nc3cccc(C)c3n2[C@H]2CCCCN(C(=O)/C=C/CN(C)C)C2)ccn1` gave a cell growth of 967% and 753% and 1000% (Trypanosoma brucei brucei; CLK1 C215S mutant expressing; 5 x EC50, 24 h).
The CC50 of `CC(C)(C)C(=O)OCOP(=O)(OCOC(=O)C(C)(C)C)C1CCCN(O)C1=O` (stereo not drawn) is reported as greater than 100 µM (OVCAR-4).
The inhibition of `CS(C)(=O)=Nc1ccc(-c2ccc(-c3nc4cc(O[C@@H]5CO[C@H]6[C@@H]5OC[C@H]6O)[nH]c4cc3F)cc2)cc1` is reported as 50% (TACR2 (Homo sapiens, UniProt P21452); calcium signal, antagonist; 10 µM).
`CCc1nc2cc(C(F)(F)F)ccn2c1C(=O)NCc1ccc2oc(-c3ccc(Cl)cc3)nc2c1` gave an MIC90 of greater than 100 µM (Mycolicibacterium smegmatis).
The viability of `Cc1ccc(N2CCN(C)[C@H](C)C2)cc1C(=O)N[C@H](C)c1cc(-c2cnn(C)c2)nc2ccccc12` is reported as 0.471% and 1.26% (Vero E6; 250 µM).
`Cc1ccc(S(=O)(=O)n2cc3c4c2C(=O)C(NCCc2ccc(O)cc2)=CC4=NCC3)cc1` has an IC50 of 455 nM (Babesia duncani; parasite growth, SYBR Green; 60 h, blood stage).
The relative abundance of `COc1ccccc1-c1n[nH]c2nc(NC3CCN(C(=O)Cc4ccc(F)cc4F)CC3)ncc12` is reported as 1.02 (bead binding, competition bead pull-down, item: LINJ.36.1320; Leishmania donovani axenic amastigote extract; 10 µM; reference: vehicle).
The inhibition zone of `Cc1ccc(CNC(=O)C(=O)c2c(C)nc3ccc(C)cn23)cc1` is reported as 0 mm (Mycolicibacterium smegmatis; microbial growth; MC2155; 2 mM, 20 h).
The MIC of `CCc1nc2ccc(C(F)(F)F)cn2c1C(=O)NCc1ccc2oc(-c3ccc(OC(F)(F)F)cc3)nc2c1` is reported as greater than 100 µM (Mycolicibacterium smegmatis; 72 h).
`COc1ccc2cc(-c3ccc(Cn4ccnc4)cc3)ccc2c1` has an MIC50 of 2.4 µM (≈ 0.755 µg/mL) (Mycobacterium tuberculosis variant bovis BCG; microbial growth; BCG).
`CC(=O)NCCCC[C@@H]1NC(=O)[C@H](Cc2c[nH]c3c(C)cccc23)NC(=O)[C@H]([C@@H](C)O)NC(=O)[C@H](CC(N)=O)NC(=O)[C@@H](NC(C)=O)C(C)(C)SSC(C)(C)[C@@H](C(=O)N[C@@H](Cc2ccc(OCCN)cc2)C(=O)N[C@@H](Cc2ccc3ccccc3c2)C(=O)NC2(C(=O)N[C@@H](CCC(=O)O)C(=O)N[C@@H](CC(N)=O)C(=O)N[C@@H](Cc3cccnc3)C(=O)N(C)CC(N)=O)CCOCC2)NC1=O` gave an unbound fraction of 74.3 ± 4.3 % unbound (Albumin (ALB, Homo sapiens, UniProt P02768); equilibrium dialysis; purified human albumin; 0.1 µM).
The normalised growth of `Cc1cc(Oc2nc(N3CC[C@@H](c4ccncc4)C3)ncc2F)[nH]n1` is reported as 99% and 101% and 98% (Mycobacterium tuberculosis; OD; H37Rv PurF CRISPRi knockdown; 7e-06 µM, with: anhydrotetracycline low).
`Cc1nc2ccc(Br)cn2c1C(=O)NCc1ccc2oc(-c3ccc(OC(F)(F)F)cc3)nc2c1` gave an MIC90 of greater than 100 µM (Mycolicibacterium smegmatis).
The IC50 of `O=C1C(NCCc2ccc(O)c(Br)c2)=CC2=NCCc3c[nH]c1c32` is reported as 834 nM (Babesia duncani; parasite growth, SYBR Green; 60 h, blood stage).
`Nc1ccccc1C(=O)OCC#CCOC(=O)c1ccccc1N` gave an MIC of greater than 128 µg/mL (Clavispora lusitaniae; microbial growth, broth dilution; MY1396).
The MIC of `CN[C@@H]1[C@H](O)[C@H](NC)[C@H]2O[C@]3(O)[C@H](O[C@@H]2[C@H]1O)O[C@H](C)C[C@H]3NC(=O)Cc1ccccn1` is reported as 1.6 to 3.1 µg/mL (Mycobacterium ulcerans; ATCC 35840).
The MIC50 of `c1cn(Cc2ccc(-c3ccc4occc4c3)cc2)cn1` is reported as 2.6 µM (≈ 0.713 µg/mL) (Mycobacterium tuberculosis variant bovis BCG; microbial growth; BCG).
The MIC of `CN[C@@H]1[C@H](O)[C@H](NC)[C@H]2O[C@]3(O)[C@H](O[C@@H]2[C@H]1O)O[C@H](C)C[C@H]3NC(=O)Cc1ccc(F)cn1` is reported as 0.8 µg/mL (Mycobacterium tuberculosis variant bovis BCG; microbial growth; BCG).
For `CCc1nc2cc(OC(F)(F)F)ccn2c1C(=O)NCc1ccc2oc(-c3ccc(OC(F)(F)F)cc3)nc2c1`, the MIC90 was greater than 100 µM (Mycolicibacterium smegmatis).
With `CN(C)[C@H]1C[C@@]23CC[C@@]4(O2)C(=CC[C@]2(C)[C@@H](c5ccc6ccncc6c5)CC[C@H]24)C=C3[C@@H](O)[C@@H]1O` the inhibition was 14.9% (CAMK2G (Homo sapiens, UniProt Q13555); ATP probe labelling, inhibitor, KiNativ profiling; 1 µM).
`CCc1nc2cc(C(F)(F)F)ccn2c1C(=O)NCc1ccc2oc(-c3ccc(OC(F)(F)F)cc3)nc2c1` has an MIC90 of greater than 100 µM (Mycolicibacterium smegmatis).
`COc1ccc(CCNC2=CC3=[N+](C)CCc4c[nH]c(c43)C2=O)cc1` has an IC50 of 68.3 nM (Babesia duncani; parasite growth, SYBR Green; 60 h, blood stage).
`O=C1NC2(CC2)COc2ncc(F)cc2[C@H]2COCCN2c2ccn3ncc1c3n2` — result for “organ-to-brain weight ratio”: 3.65 ± 0.62% (Sprague-Dawley rat, female, adrenals; oral, 10 mg/kg/day, 4 weeks dosing, end of recovery).
`Cc1ccc(N2CC3CCC(C2)N3C)cc1C(=O)N[C@H](C)c1cc(-c2cnn(C)c2)nc2ccccc12` gave a viability of 100% (African green monkey cells; 7.812 µM).
For `CN[C@@H]1[C@H](O)[C@H](NC)[C@H]2O[C@]3(O)[C@H](O[C@@H]2[C@H]1O)O[C@H](C)C[C@H]3NC(=O)Cc1ccc(Cl)cn1`, the MIC was 0.8 µg/mL (Mycobacterium tuberculosis variant bovis BCG; microbial growth; BCG).
With `Cc1nc2cc(OC(F)(F)F)ccn2c1C(=O)NCc1ccc2oc(-c3ccc(Cl)cc3)nc2c1` the MIC was greater than 100 µM (Mycolicibacterium smegmatis; 72 h).
The relative abundance of `COc1ccccc1-c1n[nH]c2nc(N[C@H]3CC[C@H](NS(=O)(=O)CC(C)C)CC3)ncc12` is reported as 0.66 (bead binding, competition bead pull-down, item: LINJ.26.0320; Leishmania donovani extract; 10 µM; reference: vehicle).
`O=C1C(=O)c2[nH]cc3c2C(=C1I)NCC3` has an IC50 of 27500 nM (Babesia duncani; parasite growth, SYBR Green; 60 h, blood stage).
With `CN[C@@H]1[C@H](O)[C@H](NC)[C@H]2O[C@]3(O)[C@H](O[C@@H]2[C@H]1O)O[C@H](C)C[C@H]3NC(=O)Cc1cc(Cl)ccn1` the MIC was 0.4 to 0.8 µg/mL (Mycobacterium tuberculosis variant bovis BCG; microbial growth; BCG).
For `Cc1ccc2nc(C)c(C(=O)C(=O)N(C)C)n2c1`, the MIC was greater than 128 µM (Mycobacterium tuberculosis variant bovis BCG; microbial growth; BCG; 6 days).

Some of these lines once more:
For `CCc1nc2cc(OC(F)(F)F)ccn2c1C(=O)NCc1ccc2oc(-c3ccc(OC(F)(F)F)cc3)nc2c1`, the MIC90 was greater than 100 µM (Mycolicibacterium smegmatis).
`O=C1NC2(CC2)COc2ncc(F)cc2[C@H]2COCCN2c2ccn3ncc1c3n2` — result for “organ-to-brain weight ratio”: 3.65 ± 0.62% (Sprague-Dawley rat, female, adrenals; oral, 10 mg/kg/day, 4 weeks dosing, end of recovery).
The viability of `Cc1ccc(N2CCN(C)[C@H](C)C2)cc1C(=O)N[C@H](C)c1cc(-c2cnn(C)c2)nc2ccccc12` is reported as 0.471% and 1.26% (Vero E6; 250 µM).
`Cc1nc2ccc(Br)cn2c1C(=O)NCc1ccc2oc(-c3ccc(OC(F)(F)F)cc3)nc2c1` gave an MIC90 of greater than 100 µM (Mycolicibacterium smegmatis).
